Results collected from several papers.
Each line is one published result; not all experiments were run side by side.

NC(=O)c1cnc2[nH]ccc2c1N[C@@H]1[C@@H]2CC3C[C@H]1C[C@@](O)(C3)C2 — absorption lag time (healthy human volunteers, plasma; oral, population PK model, bootstrap median): 0.133 h
CCN1CCN(Cc2ccc(Nc3ncc(F)c(-c4cc(F)c5nc(C)n(C(C)C)c5c4)n3)nc2)CC1 — absorption lag time (population PK model; human, plasma; oral): 1.71 h
CC[C@@H]1CN(C(=O)NCC(F)(F)F)C[C@@H]1c1cnc2cnc3[nH]ccc3n12 — absorption lag time (population PK modelling; human; oral, extended-release formulation, outliers excluded): 0.154 h
Cn1cnc2c(F)c(Nc3ccc(Br)cc3Cl)c(C(=O)NOCCO)cc21 — absorption lag time (population PK model; human, plasma; oral, first-order absorption model, fasted): 0.41 h
COc1cc(N2CCC3(CCN(C)CC3)CC2)ccc1Nc1ncc(Cl)c(Nc2ccccc2P(C)(C)=O)n1 — absorption lag time (population PK model; human fed; oral, final model without outliers): 0.473 h
NC(N)=NCCC[C@@H](N)C(=O)N[C@@H](CCCN=C(N)N)C(=O)N1CCC[C@H]1C(=O)N1C[C@H](O)C[C@H]1C(=O)NCC(=O)N[C@@H](Cc1cccs1)C(=O)N[C@@H](CO)C(=O)N1Cc2ccccc2C[C@@H]1C(=O)N1[C@H](C(=O)N[C@@H](CCCN=C(N)N)C(=O)O)C[C@@H]2CCCC[C@@H]21 — absorption lag time (popPK full model estimate; human; subcutaneous): 0.0426 h
CC(C)Nc1nc2cc(Cl)c(Cl)cc2n1[C@H]1O[C@@H](CO)[C@H](O)[C@@H]1O — absorption lag time (population PK model; human; oral): 0.212 h
NC1(C(=O)N[C@@H](CCO)c2ccc(Cl)cc2)CCN(c2nc[nH]c3nccc2-3)CC1 — absorption lag time (human; capsules): 0.468 h

A few entries again:
NC1(C(=O)N[C@@H](CCO)c2ccc(Cl)cc2)CCN(c2nc[nH]c3nccc2-3)CC1 — absorption lag time (human; capsules): 0.468 h
